Results from different studies.
Parts stem from different laboratories: compare values within a part only.

Block 1
Target: TAR DNA-binding protein 43, full length, His tag (TARDBP, Homo sapiens, UniProt Q13148, residues 1-414)
Method: RNA Bind-n-Seq
Form: RNA
Matrix: in vitro
Tested at: 20 nM
Setting: 6-mer, flanks averaged, single round
Together with: 150 mM LiCl
Reference: input library
Reading: higher = stronger binding
Under “6-mer enrichment (R)”, `GGUCCC` is recorded as 1.02.
`CUGGUU`: “6-mer enrichment (R)” 0.99.
For `UUUGGG`, “6-mer enrichment (R)” read 1.33.
`GCAGUU`: “6-mer enrichment (R)” 0.981.
`AUGAUU` — result for “6-mer enrichment (R)”: 0.943.
`GUUGAG`: “6-mer enrichment (R)” 1.27.
`CAUGUC`: “6-mer enrichment (R)” 0.9.
For `UGCAGG`, “6-mer enrichment (R)” read 1.06.

Block 2
Cell line: HEK-293T/ACE2
Tested at: 10 µM
Time: 16 h
Reference: vehicle
The viability of `COc1cnc(NS(=O)(=O)c2ccc(N)cc2)nc1` is reported as 99.1%.
With `[H]/N=C(/NCCCCC)N/N=C/c1c[nH]c2ccc(OC)cc12` the viability was 94.5%.
For `Cc1nnc(SCC2=C(C(=O)O)N3C(=O)[C@@H](NC(=O)Cn4cnnn4)[C@H]3SC2)s1`, the viability was 101%.

Block 3
Target: Sal-like protein 4, full length isoform A (SALL4, Homo sapiens, UniProt Q9UJQ4, residues 1-1053)
Chain of UniProt Q9UJQ4 (whole entry, looked up): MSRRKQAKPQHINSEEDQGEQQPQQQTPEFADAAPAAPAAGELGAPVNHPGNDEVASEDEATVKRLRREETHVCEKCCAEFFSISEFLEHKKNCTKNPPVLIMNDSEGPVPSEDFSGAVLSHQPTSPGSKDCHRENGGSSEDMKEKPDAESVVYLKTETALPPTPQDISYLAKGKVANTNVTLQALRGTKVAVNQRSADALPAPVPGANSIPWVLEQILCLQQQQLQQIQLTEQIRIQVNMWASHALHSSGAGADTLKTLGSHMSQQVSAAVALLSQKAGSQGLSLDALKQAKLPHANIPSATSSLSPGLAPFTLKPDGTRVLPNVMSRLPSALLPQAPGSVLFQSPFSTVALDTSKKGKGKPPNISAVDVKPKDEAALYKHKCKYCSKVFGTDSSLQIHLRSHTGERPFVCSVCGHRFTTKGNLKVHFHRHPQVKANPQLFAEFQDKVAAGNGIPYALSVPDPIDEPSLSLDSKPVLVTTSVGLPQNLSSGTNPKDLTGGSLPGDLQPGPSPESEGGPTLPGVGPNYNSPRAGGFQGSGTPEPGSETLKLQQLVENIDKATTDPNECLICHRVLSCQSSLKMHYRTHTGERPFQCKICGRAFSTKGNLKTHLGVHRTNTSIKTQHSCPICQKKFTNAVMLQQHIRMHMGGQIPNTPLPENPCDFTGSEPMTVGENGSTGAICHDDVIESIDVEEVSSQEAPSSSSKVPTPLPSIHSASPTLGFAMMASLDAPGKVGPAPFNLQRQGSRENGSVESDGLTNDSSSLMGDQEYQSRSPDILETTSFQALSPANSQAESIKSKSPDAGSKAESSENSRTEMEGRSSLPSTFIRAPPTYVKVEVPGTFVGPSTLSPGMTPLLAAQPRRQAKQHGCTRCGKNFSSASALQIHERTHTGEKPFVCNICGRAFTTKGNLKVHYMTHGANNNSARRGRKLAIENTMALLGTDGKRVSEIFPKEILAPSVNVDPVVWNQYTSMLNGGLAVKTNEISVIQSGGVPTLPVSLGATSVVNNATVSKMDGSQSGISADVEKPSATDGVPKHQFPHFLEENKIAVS
Method: universal PBM
Form: double-stranded DNA, one strand shown
Matrix: in vitro
Tested at: 600 nM
Setting: 8-mer, flanks averaged, mean of replicates
Reading: higher = stronger binding
The E-score of `AGTTGCTG` is reported as -0.155.
The E-score of `GCATGGAC` is reported as -0.154.
`ATGACACG` has an E-score of 0.0516.
With `AATACAGG` the E-score was 0.18.
`CAAGGATA` gave an E-score of 0.0308.
For `CAGTACCG`, the E-score was -0.211.
The E-score of `CTTCCACC` is reported as -0.0282.
The E-score of `CCAACACG` is reported as -0.118.

Block 4
Target: PABPC1L2, full length, GST fusion (mouse, UniProt A0ABA7IW68)
Method: RNAcompete
Form: RNA
Matrix: in vitro
Tested at: 20 nM
Setting: 7-mer, probes averaged, single round
Reference: mean of 7-mers
Reading: higher = stronger binding
Construct (chain): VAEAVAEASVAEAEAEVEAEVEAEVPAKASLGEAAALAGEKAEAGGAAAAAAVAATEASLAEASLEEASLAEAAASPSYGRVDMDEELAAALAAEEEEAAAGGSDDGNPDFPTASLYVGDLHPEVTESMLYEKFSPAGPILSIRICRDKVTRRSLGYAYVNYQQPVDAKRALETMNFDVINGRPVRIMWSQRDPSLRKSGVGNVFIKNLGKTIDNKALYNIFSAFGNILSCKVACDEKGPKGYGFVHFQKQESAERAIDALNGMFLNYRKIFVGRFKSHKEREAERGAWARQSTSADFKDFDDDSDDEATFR
`GGUUCUC` gave a 7-mer Z-score of -0.36.
`GCGACUC` gave a 7-mer Z-score of -0.112.
`AUCGAAA` has a 7-mer Z-score of 0.717.
With `GGCAAGU` the 7-mer Z-score was 0.037.
For `AGUGAGU`, the 7-mer Z-score was -0.204.
For `UUUUCUU`, the 7-mer Z-score was -0.228.
The 7-mer Z-score of `CUGUAUG` is reported as -0.262.
`UAGUUCU` has a 7-mer Z-score of -0.356.

Block 5
Structure (SMILES): c1cnc(SCc2cccnc2)nc1
Observed: enzyme activity
rep main protease: Replicase polyprotein 1ab, main protease (rep, Severe acute respiratory syndrome coronavirus 2, UniProt P0DTD1)
The inhibition was -6.8% (rep main protease; inhibitor; 20 µM, hit confirmation, with DTT).
For Replicase polyprotein 1ab, 3C-like proteinase (rep, Middle East respiratory syndrome-related coronavirus, UniProt K9N7C7); 10 µM: inhibition read 19%.
The inhibition was 98.1% (rep main protease; inhibitor; 20 µM, hit confirmation, no DTT).

Block 6
Target: Replicase polyprotein 1ab, nsp13 helicase (rep, Severe acute respiratory syndrome coronavirus 2, UniProt P0DTD1)
Mode: inhibitor
Tested at: 20 µM
For `Cc1ccc(C(C)C)c(OCC2=NCCN2)c1`, the inhibition was 5.17%.
With `NC(=O)C1CCCc2c1[nH]c1ccc(Cl)cc21` (stereo not shown) the inhibition was -0.04%.
`O[C@H]1CC[C@H](Nc2ncc3nc(Nc4c(F)cc(F)cc4F)n([C@H]4CCOC4)c3n2)CC1` gave an inhibition of 3.86%.
`CCCCCCCCCCCCCCCC(=O)OC(CC(=O)[O-])C[N+](C)(C)C` (stereo not shown) gave an inhibition of 4.32%.
The inhibition of `O=C(Cc1ccc(-c2ccc(OCCN3CCOCC3)cc2)cn1)NCc1ccccc1` is reported as 0.79%.
The inhibition of `COC1=C2C[C@@H](C)C[C@H](OC)[C@H](O)[C@@H](C)/C=C(\C)[C@H](OC(N)=O)[C@@H](OC)/C=C\C=C(/C)C(=O)NC(=CC1=O)C2=O` is reported as 13%.
With `C[C@H](Cc1ccc(O)c(O)c1)[C@@H](C)Cc1ccc(O)c(O)c1` the inhibition was 0.64%.
`C[C@]12CCC(=O)C=C1CC[C@@H]1[C@@H]2[C@@H](O)C[C@]2(C)C(=O)CC[C@@H]12` has an inhibition of 4.49%.
With `N[C@@H](CS(=O)O)C(=O)O` the inhibition was 1.01%.
`Cn1cc(C2=C(c3cn(CCCSC(=N)N)c4ccccc34)C(=O)NC2=O)c2ccccc21` gave an inhibition of 57.9%.
With `COc1cc(NC(=O)c2ccc(-c3ccc(Cl)cc3)o2)cc(OC)c1` the inhibition was 4.12%.
For `COc1ccnc2[nH]cc(C(=O)C(=O)N3CCN(C(=O)c4ccccc4)C[C@H]3C)c12`, the inhibition was -5.41%.
`O=C1NC(=S)NC(=O)C1C(=O)Nc1ccccc1` gave an inhibition of 3.72%.
For `CC12CC3CC(C)(C1)CC(N)(C3)C2`, the inhibition was 0.15%.
For `CCCCNc1cc(C(=O)O)cc(S(N)(=O)=O)c1Oc1ccccc1`, the inhibition was 11.9%.
With `CN1CCN(C(=O)O[C@H]2c3nccnc3C(=O)N2c2ccc(Cl)cn2)CC1` the inhibition was 1.38%.
`O=c1cc(-c2ccc(O)cc2)oc2cc(O)cc(O)c12` has an inhibition of 57%.
`Cc1[nH]c2ccc(O)cc2c1CCN` has an inhibition of -3.48%.
`O=C1OC(OC(=O)c2cccnc2Nc2cccc(C(F)(F)F)c2)c2ccccc21` (stereo not shown) has an inhibition of 0.96%.
`CCc1noc(C)c1-c1[nH]c2ccccc2c1C(O)CN(C)C` (stereo not shown) has an inhibition of -0.62%.
`N[C@H](Cc1c[nH]cn1)C(=O)O` gave an inhibition of 4.83%.
For `CC(C)n1nc(C#Cc2ccccc2)c2c(N)ncnc21`, the inhibition was 100%.
For `COc1nc(C)nc(Cl)c1NC1=NCCN1`, the inhibition was 3.3%.
`COc1nccc(-c2c(-c3ccc(F)cc3)ncn2[C@H]2CC[C@H](O)CC2)n1` gave an inhibition of -0.81%.
The inhibition of `CCOc1ccc(-n2c([C@@H](C)N(Cc3cccnc3)C(=O)Cc3ccc(OC(F)(F)F)cc3)nc3ncccc3c2=O)cc1` (racemic) is reported as 9.25%.

For quick reference, copied from above (block 6):
For `Cc1ccc(C(C)C)c(OCC2=NCCN2)c1`, the inhibition was 5.17%.
With `NC(=O)C1CCCc2c1[nH]c1ccc(Cl)cc21` (stereo not shown) the inhibition was -0.04%.
`O[C@H]1CC[C@H](Nc2ncc3nc(Nc4c(F)cc(F)cc4F)n([C@H]4CCOC4)c3n2)CC1` gave an inhibition of 3.86%.
`CCCCCCCCCCCCCCCC(=O)OC(CC(=O)[O-])C[N+](C)(C)C` (stereo not shown) gave an inhibition of 4.32%.
